Published values collected from several papers.
Protocols differ between the studies behind these lines. ± marks the error that the study gave.

Structure (SMILES) = CCCCCC(=O)OCn1cc(F)c(=O)[nH]c1=O; system = HCl or phosphate buffer; setting = 80 µg/mL, pH 1.2, 37 °C, chemical stability; quantity = half-life; value = 36.2 ± 0.3 h
Structure (SMILES) = CC[C@H](C)[C@@H]1NC(=O)[C@H](CC(C)C)NC(=O)[C@H](Cc2ccccc2)NC(=O)[C@H](Cc2ccccc2)NC(=O)[C@@H]2CCCN2C(=O)[C@@H]2CCCN2C(=O)[C@H](C(C)C)NC(=O)[C@H](CC(C)C)NC(=O)[C@H]([C@@H](C)CC)NC1=O; target or system = MCF7; test = LDH release; setting = 200 µg/mL, 24 h; quantity = cytotoxicity; value = 18%
Structure (SMILES) = O=C[C@H](C[C@@H]1CCNC1=O)NC(=O)[C@H](CC1CCCCC1)NS(=O)(=O)c1cccc(Cl)c1; target or system = feline coronavirus; system = CRFK, FIPV-1146; scale = relative to: CC50 over EC50; quantity = therapeutic index; value = > 417
Structure (SMILES) = C=CCCCC(C)(NC(=O)[C@H](Cc1c[nH]cn1)NC(=O)[C@@H](N)CC(=O)O)C(=O)N[C@@H](CC(N)=O)C(=O)N1CCC[C@H]1C(=O)N[C@@H](CCC(N)=O)C(=O)N[C@H](C(=O)N[C@@H](CCCNC(=N)N)C(N)=O)[C@@H](C)CC (stereo partly drawn); target or system = NIH3T3; test = cytotoxicity, MTT; setting = up to 10 µM, 24 h; quantity = viability; value = not toxic
Structure (SMILES) = CC(C)C[C@H](NC(=O)OCc1cccc(Cl)c1)C(=O)N[C@H](C=O)C[C@@H]1CCNC1=O; target or system = CRFK; test = cell growth or viability; setting = 36 h; quantity = CC50; value = > 150 µM
Structure (SMILES) = O=C(O)COc1ccc(Br)cc1C=NNC(=O)Cc1ccccc1 (mixture of isomers); system = mouse, serum; setting = oral, 100 mg/kg, 48 h; quantity = CK-MB; value = 42.6 ± 11 U/L
